Measurements collected from several papers.
Each line is one published result; not all experiments were run side by side.

Cn1ncc(-c2nc(N[C@H]3CC[C@H](N)CC3)ncc2Cl)c1CC1CC1 — AUC (HPLC-MS/MS; patients, plasma; oral, 21 mg, day 5): 3770 ng·h/mL
CCN1CCN(Cc2ccc(Nc3ncc(F)c(-c4cc(F)c5nc6n(c5c4)[C@H](C)CCC6)n3)nc2)CC1 — blood creatinine increased incidence (Phase Ia dose escalation; patients with advanced solid tumours; dose not given, monotherapy, grade ≥3): 4.2%
CC(C)n1c(C2CCNCC2)nc2c([N+](=O)[O-])c(Br)c(Br)cc21 — adverse events causing interruption (measured: Asthenia; AML patients; 125 mg): 6%
COc1cc2c(Oc3ccc4[nH]c(C)cc4c3F)ccnc2cc1OCC1(N)CC1 — grade 3 Neutropenia (paediatric recurrent refractory sarcoma; 8 mg): 0%
CO[C@H]1C[C@@H]2CC[C@@H](C)[C@@](O)(O2)C(=O)C(=O)N2CCCC[C@H]2C(=O)O[C@H]([C@H](C)C[C@@H]2CC[C@@H](OC(=O)NCCOCCOCCOCCOCCOCCOCCOCCOCCC(=O)N3CCc4cc(Cn5nc(-c6ccc7oc(N)nc7c6)c6c(N)ncnc65)ccc4C3)[C@H](OC)C2)C[C@@H](O)[C@H](C)/C=C(\C)[C@@H](O)[C@@H](OC)C(=O)[C@H](C)C[C@H](C)/C=C/C=C/C=C/1C — TRAE incidence (phase 1 dose escalation, measured: decreased appetite; advanced solid tumour patients; intravenous, 16 mg weekly, any grade): 25%
O=C(Nc1ccccc1)C1CCN(C(=O)Oc2cccnc2)CC1 — adverse event Nausea (healthy women; oral, 20 mg, 7 days): 0%
[O-][S+]1CCc2nc(N3CCC(c4ncc(Cl)cn4)CC3)nc(NC3(CO)CCC3)c21 (centres unmarked) — Flatulence adverse events (idiopathic pulmonary fibrosis patients; 18 mg twice daily): 30%
C[C@H]1COCCN1c1nc(NCc2cccnc2C(F)(F)F)c2cccnc2n1 — PR change (conscious rat; intravenous, 10 mg/kg; reference: control): 9.3%
Nc1nc2cc(-c3ccc4ncc(C(=O)N5CCOCC5)n4c3)ccc2o1 — patients with drug-related AEs (advanced solid tumour patients; dose not given, at least 1 AE, all schedules; reference: patients): 89%
CC(C)[C@@H]1NC(=O)CNC(=O)[C@H](CC(N)=O)NC(=O)[C@H](CCCNC(=N)N)NC(=O)[C@H](Cc2ccc(O)cc2)NC(=O)[C@H](C(C)C)NC(=O)[C@@H](NC(=O)[C@@H](NC(=O)[C@H](CC(N)=O)NC(=O)[C@H](Cc2c[nH]c3ccccc23)NC(=O)[C@H](C)NC(=O)[C@H](Cc2ccccc2)NC(=O)CN)C(C)C)CSSC[C@@H](C(=O)N[C@@H](Cc2cnc[nH]2)C(=O)N[C@@H](CCCNC(=N)N)C(=O)N[C@@H](CCCNC(=N)N)C(=O)N[C@@H](C)C(=O)N[C@@H](CC(N)=O)C(N)=O)NC(=O)[C@H](C(C)C)NC(=O)[C@H](CCCNC(=N)N)NC1=O — remaining peptide (HPLC; mouse kidney homogenate; 2560 µM, 2.00 h, 37 °C, 50 mg/mL tissue): 54.3%
C[C@]1(CO)Cc2ncn(-c3ccc(C#N)c(Cl)c3)c2C(=O)O1 — subjects with severe TEAEs (human; 40 mg single dose): 0%
N[C@@H]1c2ccccc2OC12CCN(c1cnc3c(N4CCCc5ncccc54)n[nH]c3n1)CC2 — dose-limiting toxicity (advanced metastatic solid tumour patients; oral, 75 mg once daily, cycle 1, 21 days): 14.3%
CC(C)(O)c1cc(Nc2cc(Oc3cn(C4CC4)nc3C3CCOCC3)ccn2)ccn1 — treatment-emergent adverse events (measured: Constipation; Japanese patients with advanced cancer; oral, dose not given, any grade): 22%
CC(=O)NCC(=O)NCC(=O)N[C@H](C(=O)N[C@@H](Cc1ccc(O)cc1)C(=O)N[C@@H](CO)C(=O)N[C@H]1CSSC[C@@H](C(=O)N[C@@H](CCCNC(=N)N)C(=O)N2CCC[C@H]2C(=O)N[C@@H](CCC(N)=O)C(=O)N[C@@H](CCCNC(=N)N)C(=O)NCC(=O)NCCC(=O)N[C@@H](CCCCNC(=O)CN(CC(=O)NCCCC[C@H](NC(=O)CCNC(=O)CNC(=O)[C@H](CCCNC(=N)N)NC(=O)[C@H](CCC(N)=O)NC(=O)[C@@H]2CCCN2C(=O)[C@H](CCCNC(=N)N)NC(=O)[C@@H]2CSSC[C@H](NC(=O)[C@H](CO)NC(=O)[C@H](Cc3ccc(O)cc3)NC(=O)[C@@H](NC(=O)CNC(=O)CNC(C)=O)[C@@H](C)O)C(=O)N[C@@H](Cc3c[nH]cn3)C(=O)N[C@@H](Cc3ccccc3)C(=O)NCC(=O)N[C@@H](C)C(=O)N[C@@H](CC(C)C)C(=O)N[C@@H]([C@@H](C)O)C(=O)N[C@@H](Cc3c[nH]c4ccccc34)C(=O)N[C@@H](C(C)C)C(=O)N2)C(N)=O)C(=O)CCN)C(N)=O)NC(=O)[C@H](C(C)C)NC(=O)[C@H](Cc2c[nH]c3ccccc23)NC(=O)[C@H]([C@@H](C)O)NC(=O)[C@H](CC(C)C)NC(=O)[C@H](C)NC(=O)CNC(=O)[C@H](Cc2ccccc2)NC(=O)[C@H](Cc2c[nH]cn2)NC1=O)[C@@H](C)O — serum concentration (BALB/c mouse; subcutaneous, 0.08 mg/kg, 0.5 h): 5 ng/mL

A few entries again:
CC(C)(O)c1cc(Nc2cc(Oc3cn(C4CC4)nc3C3CCOCC3)ccn2)ccn1 — treatment-emergent adverse events (measured: Constipation; Japanese patients with advanced cancer; oral, dose not given, any grade): 22%
CO[C@H]1C[C@@H]2CC[C@@H](C)[C@@](O)(O2)C(=O)C(=O)N2CCCC[C@H]2C(=O)O[C@H]([C@H](C)C[C@@H]2CC[C@@H](OC(=O)NCCOCCOCCOCCOCCOCCOCCOCCOCCC(=O)N3CCc4cc(Cn5nc(-c6ccc7oc(N)nc7c6)c6c(N)ncnc65)ccc4C3)[C@H](OC)C2)C[C@@H](O)[C@H](C)/C=C(\C)[C@@H](O)[C@@H](OC)C(=O)[C@H](C)C[C@H](C)/C=C/C=C/C=C/1C — TRAE incidence (phase 1 dose escalation, measured: decreased appetite; advanced solid tumour patients; intravenous, 16 mg weekly, any grade): 25%
